# Assay results of several laboratories.
# A part holds a random share of what one study measured.

# Series 1
# Target: Sal-like protein 4, full length isoform A (SALL4, Homo sapiens, UniProt Q9UJQ4, residues 1-1053)
# Sequence of UniProt Q9UJQ4 (whole entry, looked up): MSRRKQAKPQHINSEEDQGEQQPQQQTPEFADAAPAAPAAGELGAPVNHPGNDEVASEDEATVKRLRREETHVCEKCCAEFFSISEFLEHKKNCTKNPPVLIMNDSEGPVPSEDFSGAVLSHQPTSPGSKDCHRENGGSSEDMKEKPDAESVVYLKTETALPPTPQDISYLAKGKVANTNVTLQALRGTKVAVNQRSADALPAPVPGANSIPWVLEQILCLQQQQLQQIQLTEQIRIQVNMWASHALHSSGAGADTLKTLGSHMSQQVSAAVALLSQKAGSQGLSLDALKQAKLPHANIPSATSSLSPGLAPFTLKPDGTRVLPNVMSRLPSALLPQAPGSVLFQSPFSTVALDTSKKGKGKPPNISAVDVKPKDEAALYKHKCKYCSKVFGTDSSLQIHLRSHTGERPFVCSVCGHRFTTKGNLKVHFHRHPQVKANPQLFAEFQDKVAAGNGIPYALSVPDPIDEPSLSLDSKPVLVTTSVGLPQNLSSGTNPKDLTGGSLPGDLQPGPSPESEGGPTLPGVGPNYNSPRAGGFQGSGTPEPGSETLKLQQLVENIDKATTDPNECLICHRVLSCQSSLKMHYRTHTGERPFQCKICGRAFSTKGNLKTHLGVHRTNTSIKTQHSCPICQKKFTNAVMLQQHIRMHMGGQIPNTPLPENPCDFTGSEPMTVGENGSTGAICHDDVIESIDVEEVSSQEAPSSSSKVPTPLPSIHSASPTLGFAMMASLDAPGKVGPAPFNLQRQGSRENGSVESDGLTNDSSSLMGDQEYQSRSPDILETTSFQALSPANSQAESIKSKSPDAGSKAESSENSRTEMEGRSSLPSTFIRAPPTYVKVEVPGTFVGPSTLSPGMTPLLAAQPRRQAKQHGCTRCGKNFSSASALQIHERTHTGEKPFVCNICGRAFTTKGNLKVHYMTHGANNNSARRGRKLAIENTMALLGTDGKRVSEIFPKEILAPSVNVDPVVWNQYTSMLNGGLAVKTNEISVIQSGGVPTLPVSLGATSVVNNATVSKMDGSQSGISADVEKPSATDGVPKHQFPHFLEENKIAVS
# Technique: universal PBM
# Molecule type: double-stranded DNA, one strand shown
# Sample: in vitro
# Tested at: 600 nM
# Setting: 8-mer, flanks averaged, mean of replicates
# Direction: higher = stronger binding
Oligonucleotide,E-score
CAAGTCCA,0.0149
CCCCAAGA,-0.196
GGAATCAA,0.00513
AAATCCTG,0.0871
AGGCAAAC,-0.0535
AGGTGCAT,0.0459
AGGTGCTG,-0.247
TGTCCGAA,0.0731
CACGCAGG,-0.0997
AAGCTACA,0.0262
AGAGAATA,0.222
ATAATCAG,0.284
TATCCTCA,0.0617
CCGCCGCC,-0.421

# Series 2
# Target: RNA binding protein fox-1 homolog 2, RRM domain, GST-SBP tag (RBFOX2, Homo sapiens, UniProt O43251-10, residues 100-194)
# Technique: RNA Bind-n-Seq
# Molecule type: RNA
# Sample: in vitro
# Tested at: 365 nM
# Setting: natural RNA segment, single round, ends assumed
# Baseline: no-protein control
# Direction: higher = stronger binding
# Constant ends, left off below: GGGAGUUCUACAGUCCGACGAUC … UGGAAUUCUCGGGUGCCAA
Oligonucleotide,RBNS enrichment (R)
UCUGUUAAGGAGUUUUUCCCAAGAAGAAAAGUAUUUAAAAGAAAUACCAGUGAGUGCCUUAAAGUUGGAGAAGUAACUGCCCAUGCCCAGAAAUAAGGAUGCCAGUGCCC,2.01
GCAGGGCCGCUCGAUGCCUUUGCUGUUUAGCUUCCUCCAGAGGAGGGGACUUGUAGGAAUCUGCCUUCCAGCCCAGACCCCCAGUGUAUUUUGUCCAAGUUCACAGUAGA,0.385
AAUUCUUAGCACUGGUGUAAAUAUCAUGGUGCCUACUCGAAAGAAAUGUAGAUGCUAUGCAUUUUGAAAAUAAUCUGCAUCAGUUAGAACUGCAGAAGUUUUUUUAAUGC,0.406
GACAUUCACAUCAUUUCACUCUGGUCUGAGUGGUGGCCUGAGAACCAUGGUGGCAUGGACCACCCUCAUCCAUGCAACUCCAGGCCCCAUGGGAACGGAUGUGGAAGGAA,0.767
UGAGCCAUCGAUAAGCCCCUAAAAUGCGGAUUAUAAAAUUGCCAAAUAUCCUUUCUCAUGGAAGUGCAUACCUGCGUGUGGAGAAGCUGAGGAGUGAAAACCAUGCAAGU,0.402
CUGCAAUGUAGGUCUCCUUCCUGUGCAGUGUAACAUGUAUCCCGUUGCCUGUUGUUCGGUUGUGUGACUAAUUGUGGAUUUUAAGCUGCUAUUAUUGUAUUUCAGUGGCA,1.8
UCGAGAGUGGGAGUCUGGUACACCCAUUGGAACAAGUCCUUCGAUAAAUAAAACAGUUAUCACAUUCCCACAACAACCUAAACACAGACUACCUCUCCCCUCAUCAGAUC,0.557
UUCCUCCCACACCCUGCCAGCCUUGCAUAAGCCAUUUGUUGCAGCAUUUGUUGCUCUUGGUCCAGUCCGCCUGCCUCCUUAGGAGACCGUUCCAUGACAUGCAAGGGGAA,3.3
CUGGGCAGGAAGAGUCCUCAGUCCCAAGACCAGGAGGGGGCAAUGGGCCCAGCCUUUCUGUGGUAUCUGAUGCAGGAAGGACUGCAGUGGAUCAGAACUUACAAACCAAA,0.509
ACAGUCUGCUUGUGGGCUCUGAAAGCUGGGGUGGGGCCAGAGCCUGAGCGUUUAAUUUAUUCAGUACCUGUGUUUGUGUGAAUGCGGUGUGUGCAGGCAUCGCAGAUGGG,2.37
CUCUUGGUUACAGUAGCGUAGCGUGCCCGUGUGCAUGUCCUUUGCGCCUGUGACCACCACCCCAACAAACCAUCCAGUGACAAACCAUCCAGUGGAGGUUUGUCGGGCAC,0.404
AAUUACCACUAAUUUACCUGGCAGUGAUGUCAAAUUGACUGUAAUUAGCAGGUAGAAAAUUAUUUGUAUUAUAUUCAUCUGAUUCCUAUACUGGAUGAGCAAGGAGCAUG,0.413

# Series 3
# Target: Histone acetyltransferase KAT6A, both winged helices, GST fusion (KAT6A, Homo sapiens, UniProt Q92794, residues 1-181)
# Technique: protein binding microarray
# Molecule type: double-stranded DNA, one strand shown
# Sample: in vitro
# Tested at: not given
# Setting: 8-mer, flanks averaged, mean of 2 arrays, mostly near background
# Baseline: not given
# Direction: higher = stronger binding
# Target sequence (chain): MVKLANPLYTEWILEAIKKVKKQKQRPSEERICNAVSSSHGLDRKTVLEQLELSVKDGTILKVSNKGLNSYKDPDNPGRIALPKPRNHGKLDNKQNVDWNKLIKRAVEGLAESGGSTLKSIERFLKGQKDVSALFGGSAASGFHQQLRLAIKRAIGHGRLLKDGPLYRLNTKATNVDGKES
Oligonucleotide,E-score
GTGACGCA,0.132
GCATAGGA,-0.0529
CTTGCGGC,0.162
ACGTCTCG,0.122
AATGGTCA,-0.165
ATGAATGC,0.0649
GTCCCTCA,-0.165
AGCATAGG,-0.147
TGGTACAA,-0.184

# Other studies, line by line
Molecule,target,assay,system,conditions,scale,quantity,value
"PhoQ, residues 284 288 289 292 302 303 DDMDFR","PhoP, residues 12 14 15 18 19 VQALL (Escherichia coli, UniProt P23836)","Sort-seq, measured: YFP reporter",E. coli,"PhoQ-PhoP variant library, with: 10 µM Mg2+","baseline: high Mg2+ state, higher = stronger signaling",fold induction,0.799

# For quick reference, copied from above (series 3):
Oligonucleotide,E-score
ACGTCTCG,0.122
AATGGTCA,-0.165
ATGAATGC,0.0649
GTCCCTCA,-0.165
AGCATAGG,-0.147
